# Measurements of several laboratories.
# A part holds a random share of what one study measured.

# Block 1
# Target: RING finger protein unkempt homolog, zinc fingers 1-6, GST-SBP tag (UNK, Homo sapiens, UniProt Q9C0B0, residues 30-357)
# Method: RNA Bind-n-Seq
# Form: RNA
# Medium: in vitro
# Tested at: not given
# Notes: RNA with constant flanks, human-mouse chimeric sites, ends assumed
# Reference: input RNA pool
# Reading: higher = stronger binding
# All sequences stand within: GGGAGUUCUACAGUCCGACGAUC … CAACAGAGGAUUGAGCAUCA
# Target sequence (chain): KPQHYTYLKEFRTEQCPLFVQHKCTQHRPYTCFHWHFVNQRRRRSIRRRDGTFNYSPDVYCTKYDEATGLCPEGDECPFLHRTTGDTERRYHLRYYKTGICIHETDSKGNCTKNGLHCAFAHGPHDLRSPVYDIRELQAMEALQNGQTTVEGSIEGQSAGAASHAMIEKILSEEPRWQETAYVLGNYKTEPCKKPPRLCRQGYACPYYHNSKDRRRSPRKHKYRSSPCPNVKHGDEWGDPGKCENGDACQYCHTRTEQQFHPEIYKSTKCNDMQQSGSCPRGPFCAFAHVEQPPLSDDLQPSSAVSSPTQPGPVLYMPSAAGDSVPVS
Oligonucleotide,bound/input enrichment [ratio]
UCUGGUCACACUCGUGUAUAUGGUGUGUGCUUUGUGGACACUUCACUGGGCAAGUUUUUCAUCGGCCAGUUUUCGGAUGACCGCCACUGUUCCAGAUUUAGGACGCUAGUGGCACACUAU,0.205
GCAAAGGAUGAUGAGGCGGCAGCUGUUGCCCUUUCCUCCCUGAUUCAUGCUUUGGAUGAGUUAAACAUGGUCGCCAUCGUCCGAUAUGCUUAUGACAAAAGAUCUAAUCCUCAAGUCGGU,0.24
UGACAAGGGCACUGCAGAGCCAUGCCUUUCUUGGACAUACAGAAAAAGUUCGGCCUUAGCCUGGACCGGCACUUUAUGUUCCUAAGCGCAGAACAGCCCUAUAAGAACGCCGCUCGGUGC,0.0673
GUAUACGGUUAUCGAGGAAAGGACUGUAGAGCGAAUGUAUACCUGCUUCCCACAGGGGAGAUAGUUUAUUUUAUCGCCUCAGUGGUAGUACUAUUUAAUUAUGAGGAGAGGACUCAGCGA,2.89
GAGUCGAGCAAACUUGAAACAAUUCGUUUUACAAAAACCUCAGUGUUCACUUGCUUGGCGAUAGCAUUGGGGUUUUAUAUAGAUUCUAAGGAGAACUGACGAUGAUGCUGCCGCUGCUGC,0.35
ACCUCCCCCUCCCGCCUCACCCCACCCCCGCUUUUUGGAAAGUUUUUGGCUUUUUUUUUCCUUCCCCAUACAAAGUGAUUACAGUUUCCCCCGCAAGGGUCUAUCGAUUCACCCUUCGGA,1.38
CUGGGCUUCUCUUUUCUUUCUUUCCUUUAGGAAAAGCCUAAAGAUUAGGUUGUAAGAAAAACAGAAGCCAUGUUUCGAAGACCUGUGUUACAGGUAUUUCGUCAGUUUGUAAGACAUGAG,0.185
UUGAAAACUGAUUCAAGUAAGUUUGAGUAUCACAAUGUUAGCUUUCUAAUUCCAUAAAAGUACUUGGUUUUUACAGUUUAUAAUCUGACAUCACCCCCCGUUUAUAAAGAUCAGCUUACU,0.47

# Block 2
# Target: Interferon regulatory factor 5, full length, phosphomimetic (IRF5, Homo sapiens, UniProt Q13568-2, residues 1-514, S451D/S453D/S456D/S462D)
# Method: protein-binding microarray
# Form: double-stranded DNA, one strand shown
# Medium: in vitro
# Tested at: 940 nM top
# Notes: 60-bp whole probe
# Added: salmon DNA 0.4 mg/ml
# Reference: random background probes
# Reading: higher = stronger binding
# All sequences stand within: GCCTAGCAC … GTCTTGATTCGCTTGACGCTGCTG
Oligonucleotide,fitted relative affinity [z-score]
TCATTCATGAAGTTTTAAACTGTGCTA,-0.143
TTAGAACTGACTATCGATTAGTGCTAG,0.183
TGTTACTAGGGTTACATAATGTGCTAG,-0.211
GACGGGCTGCTACTGCTGACGTGCTAG,-0.963
TTAGGACGGGGTTTCGGTTAGTGCTAG,7.05
TACGGTATCGGGTATCGGGACGTGCTA,5.09
AAAGTTATCACTTCCAAAGTGTGCTAG,0.406
TCAGTTCTTTTTTTCAAACTGTGCTAG,1.18
GACGATTTCGAGTATCGAGACGTGCTA,1.71
TTAGGTATCGGTCTCGATTAGTGCTAG,9.56
TTAGGTCTCCTACTGTTTTAGTGCTAG,0.414
TTAAGTATCGGGTATCGGTTAGTGCTA,6.92
GACGGTATCGGGACTTGGGACGTGCTA,2.77
GACGAGCTGGGGTTTCGAGACGTGCTA,2.29
GATGGTATCGGGACTGGGGACGTGCTA,4.42
TCATGACTGGAGTCTGGAACTGTGCTA,-0.401
TTACGTATCGACTTTCGGTTAGTGCTA,5.44
TTAGGTCTCGGACTGTGTTAGTGCTAG,0.859
TTAGATCTCAGTTTCGTTTAGTGCTAG,6.09

# Block 3
# Target: RNA binding protein fox-1 homolog 2, RRM domain, GST-SBP tag (RBFOX2, Homo sapiens, UniProt O43251-10, residues 100-194)
# Method: RNA Bind-n-Seq
# Form: RNA
# Medium: in vitro
# Tested at: 365 nM
# Notes: natural RNA segment, single round, ends assumed
# Reference: no-protein control
# Reading: higher = stronger binding
# All sequences stand within: GGGAGUUCUACAGUCCGACGAUC … UGGAAUUCUCGGGUGCCAA
# Residues (chain): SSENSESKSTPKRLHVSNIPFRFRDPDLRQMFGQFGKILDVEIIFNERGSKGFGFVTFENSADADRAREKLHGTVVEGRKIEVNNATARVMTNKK
Oligonucleotide,RBNS enrichment (R)
UUAGGGUUUAAAAUAGGGGAGCCUGUGGUGGCCUGGUGCACAGGGCUAGAACGAGAGUGCCUCCCCUUCUUGUGUCCUGGCUGGCUGGGAUGCUGGUGGCUCUUCAGAGG,0.682
UCCAGCUCCCUCAUCUCUUCAAAAUUGAGUUCUUGGGAGAACAAAAGGUAUGUAUCCUGCAGUAGUUAAGCCCUUAAAUAAUUGGGAGUUGGGAAAUCGGAAUCAAAGUA,0.53
GAGGACCAAUUUCUCAAGUCUCAGGGUUAUCAUAAAACCUUACUAACUUUAUCUUUCAUUUUUUAAAUCUCCAUUAUCCACCAAAUCUGAGCACCAAUCCCAGGUUUGUA,1.14
UAUAUAGAUUAUUGUAACCUUUCAACCUGAAAAUCAAGCAGUAUGAGAGUUUAGUUAUUUGUAUGUGUCACUAGUGUCUAAUGAAGCUUUUAAAAUCUACAAUUUCUUCU,0.297
AAGAGUUUUCUUGUUCUGUUGAAGUUUUCACACAAAACGGAAUGAAUGGGACCUCCUGCCAUUCAGUGAGCACUAGGACAGCUGGGACCUCCUGCCAUUCAGUGAGCACU,0.23
GGAAACGGACCAAUGUCUGGGUGUGGGAGGUGCUGAACCUUUUCUGGCCAUGAACCAUUAUAAAAUCCCAACAUAUAUACUGAAAAUACUGAAACUGCUUUGAAAAUUUG,0.732
AAAAAGCUUUGUAGGACACUUGUACUUAGUUUGGGAAAAAAAAAUAAAUUGAAAUUGUUAUGCUUUUGUAUUUCCAUUUCUUGCAAAUAAAUAUUUUUUCUUAAAUAGUA,0.67
AGACAGAAAUGGGUUGGGUAGUUGGGCUCCCAACCUCGGAUGGUGACCGCAACAUCCCGUGUGGGCGGCCGGCCGCUCCUGCAGCCCGACUCUCCUGCCAGUGUCUUUCA,0.289

# Block 4
# Target: Histone acetyltransferase KAT6A, winged helix 2, GST fusion (KAT6A, Homo sapiens, UniProt Q92794, residues 85-181)
# Method: protein binding microarray
# Form: double-stranded DNA, one strand shown
# Medium: in vitro
# Tested at: not given
# Notes: 8-mer, flanks averaged, mean of 2 arrays, mostly near background
# Reference: not given
# Reading: higher = stronger binding
# Target sequence (chain): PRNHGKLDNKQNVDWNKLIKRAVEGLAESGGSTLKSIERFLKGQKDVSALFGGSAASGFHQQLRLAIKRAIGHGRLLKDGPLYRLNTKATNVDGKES
Oligonucleotide,E-score
CGACAAGA,0.0664
CAGGAACA,-0.103
ATATGTTA,-0.129
CTACGGGA,-0.057
ATTTTCTG,0.00988
ACGAGTTG,-0.0386
CTACGGAC,-0.228
CGTACTAC,-0.17
CGTATCCC,-0.071
TCAAGCAA,0.0784
AGTACCAA,0.0768
TAAGGCCA,-0.0724
GGGGATTA,-0.0101
GATAGAAA,-0.0406
ATAGTCCC,-0.0303
ATACGTAC,-0.25
CATTGATC,0.0049

# For quick reference, copied from above (block 2):
Oligonucleotide,fitted relative affinity [z-score]
TGTTACTAGGGTTACATAATGTGCTAG,-0.211
GACGGGCTGCTACTGCTGACGTGCTAG,-0.963
TTAGGACGGGGTTTCGGTTAGTGCTAG,7.05
TACGGTATCGGGTATCGGGACGTGCTA,5.09
